Measurements pooled from the literature.
Each line is one published result; not all experiments were run side by side. Several values in a cell are separate wells, animals, samples, runs or records. ± marks the error that the study gave.

CCn1cc(-c2cc(Cn3ccnc3)cc3c2CCN([C@H](c2cc(OC)ccn2)C2CC2)C3=O)c(C(F)(F)F)n1  EC50 (NCI-H520; cell growth, inhibitor; 120 h): 6.68 µM
CC1CC(OC(=O)C(O)c2ccccc2)CC(C)(C)C1 (stereo not shown)  Z score (MDA-MB-231 BAX/BAK siRNA knockdown; cell viability, CellTiter-Glo; direction not given): -0.173
CN(C)CCCOc1cc(NC(=O)c2cc(Cl)cc(C(=O)Nc3cc(OCCCN(C)C)c4ccccc4n3)n2)nc2ccccc12  selectivity ratio (HT-1080; cell viability, CellTiter-Glo; 72 h; reference: IC50 HT-1080 over WI-38): 2
Cc1cc(Nc2ncc(Cl)c(Nc3ccccc3S(=O)(=O)C(C)C)n2)c(OC(C)C)cc1C1CCNCC1  log2 fold change (CLB-BAR; phosphoproteomics LC-MS/MS, item: FAM111B phosphorylation; 200 nM, 60 min; reference: untreated): -2.05
Cc1cc(OCc2nnc(SC3CCCC3)n2-c2cccnc2)ccc1-c1ccc(S(C)(=O)=O)cc1  EC50 (BRD4-HiBiT cells; BRD4 degradation rescue, inhibitor; 2 h, together with: dBET6 500 nM): 8.71 µM
C=Cc1c2[n-]c(c1C)/C=c1\[n-]/c(c(C)c1C=C)=C\c1[n-]c(c(CCC(=O)O)c1C)/C=c1\[n-]c(c(C)c1CCC(=O)O)=C2.[Sn+4]  fold change (SH-SY5Y; RNA-seq, item: THBS1 mRNA; 5 µM, 5 h; reference: untreated cells): 1.98
Cc1cccc(-c2[nH]c(CNc3ccccc3F)nc2-c2ccc3ncnn3c2)n1  viability (MM1.S pomalidomide-resistant; XTT; 2.25 µM; reference: untreated): 44%
CC[C@H](C)[C@H](NC(=O)[C@H](C)NC(=O)CNC(=O)[C@H](Cc1ccccc1)NC(=O)[C@H](CC(N)=O)NC(=O)[C@H](CC(N)=O)NC(=O)[C@H](CO)NC(=O)[C@H](CO)NC(=O)[C@H](Cc1c[nH]cn1)NC(=O)[C@@H](NC(=O)[C@H](CC(C)C)NC(=O)[C@H](Cc1ccccc1)NC(=O)[C@H](CC(N)=O)NC(=O)[C@H](C)NC(=O)[C@H](CC(C)C)NC(=O)[C@H](CCCNC(=N)N)NC(=O)[C@H](CCC(N)=O)NC(=O)[C@@H](NC(=O)[C@H](C)NC(=O)[C@@H]1CSSC[C@H](NC(=O)[C@@H](N)CCCCN)C(=O)N[C@@H](CC(N)=O)C(=O)N[C@@H]([C@@H](C)O)C(=O)N[C@@H](C)C(=O)N[C@@H]([C@@H](C)O)C(=O)N1)[C@@H](C)O)C(C)C)C(=O)N[C@@H](CC(C)C)C(=O)N[C@@H](CO)C(=O)N[C@@H](CO)C(=O)N[C@H](C(=O)N[C@@H](CC(N)=O)C(=O)N[C@H](C(=O)NCC(=O)N[C@@H](CO)C(=O)N[C@@H](CC(N)=O)C(=O)N[C@H](C(=O)N[C@@H](Cc1ccc(O)cc1)C(N)=O)[C@@H](C)O)C(C)C)[C@@H](C)O  intracellular ROS level (INS-1; DCFH-DA flow cytometry; 1 µM, unit not given; reference: control): 5.99 and 6.08
Cn1cc(-c2ccc(-c3cncc(Cl)c3N3CCC4(CCNC4=O)CC3)cc2)cn1  log2 fold change (COLO 205; gene expression, microarray, item: TCAF2 mRNA; concentration not given, 6 h; reference: untreated cells): 5.63
O=C(C[C@@H](C(F)F)n1ccc(F)n1)N1CCC(O)(Cn2cnc3c(cnn3-c3ccc(F)cc3)c2=O)CC1  viable cells (CHP-212 resistant subline R3; annexin V/PI flow cytometry; 1 µM, 48 h): 90.4% and 82.9% and 84.5%
Cc1nc(NC(=O)N2CCC[C@H]2C(N)=O)sc1-c1ccnc(C(C)(C)C(F)(F)F)c1  IC50 (MKN-1; CellTiter-Glo; 120 h): 3.08 µM
CC/C(=N\NC(=O)NCc1cccc(O)c1)c1ccc(O)c(C)c1O  log ratio (SK-OV-3; gene expression, microarray, item: FAM198B; 10 µM, 24 h; reference: DMSO): -2.93
CCOC(=O)C1=C(C)NC2=C(C(=O)OC(c3ccc(OC)c(OC)c3)C2)C1c1cccc(Cl)c1 (stereo not shown)  EC50 (J774.A1; cytotoxicity): > 20 µM
Cc1ccc2c(c1)C(=O)[C@]1(O)CCN(c3ccc4nc(C)ccc4c3)C1=N2.Cl  protein level increase (human and murine cells; Western blot, item: NMIIA; concentration not given): ~60%
O=P(O)(O)C(O)(Cn1ccnc1)P(=O)(O)O  viability (hFOB 1.19; AlamarBlue; 7.5 µM, 48 h; reference: control): 100 ± 1%
CCOC(=O)C1=C(C)NC2=C(C(=O)OC(c3ccc(Cl)c(OC)c3)C2)C1c1ccc(Cl)cc1C (stereo not shown)  EC50 (J774.A1; cytotoxicity): > 20 µM
CC(C)=CCNc1ncnc2c1ncn2[C@@H]1O[C@H](CO)[C@@H](O)[C@H]1O  AP-TGFα release (mock-transfected cells; TGFα shedding, agonist; 1 nM; reference: unstimulated vehicle control): -0.92% and 0.58% and -0.27%
CCCCc1oc2ccc(NS(C)(=O)=O)cc2c1C(=O)c1ccc(OCCCN(CCCC)CCCC)cc1  fold change (human embryonic stem cell aggregates; mRNA level, microarray, item: RHOC; 0.5 µM, 120 h; reference: untreated, down-regulated): 1.8 fold
CN(C)c1ncnc2c1ncn2[C@@H]1O[C@H](CO)[C@@H](O)[C@H]1O  AP-TGFα release (mock-transfected cells; TGFα shedding, agonist; 100 nM; reference: unstimulated vehicle control): 0.87% and 0.2% and 1.46%
C[C@@H]1CN(C(=O)c2ccc(NC(=O)c3cc(O[C@H](C)c4c(Cl)ccc(F)c4Cl)c(N)nn3)cc2)C[C@H](C)N1  Emax (Ba/F3 EML4-ALK v1, no mutation; cell viability): 99.5%
O=C(/C=C/C=C/C=C/C1CCCCC1)NC1=C[C@@](O)(/C=C/C=C/C=C/C(=O)NC2=C(O)CCC2=O)[C@@H]2O[C@@H]2C1=O  GI50 (HT-1080; cell growth, CellTiter-Glo; 78 h): 19.7 µM
CCOC(=O)C1=C(C)NC2=C(C(=O)OC(c3ccc(OC)c(OC)c3)C2)C1c1ccccc1C (mixture of isomers)  EC50 (J774.A1; cytotoxicity): > 20 µM
C=CCn1c(=O)c2cnc(Nc3ccc(N4CCN(C)CC4)cc3)nc2n1-c1ccc2c(n1)[C@@](O)(CC)CC2  G2/M cells in subpopulation (MDA-MB-231; flow cytometry, item: pHH3-γH2Ax-; concentration not given): 67.8%
C[C@@H]1CC[C@H]2[C@@H](/C1=C/C[C@H]1[C@]3(C)CCC(=O)C(C)(C)O[C@H]3CC[C@]1(C)O)C(C)(C)CC[C@]2(C)O  intracellular [3H]-paclitaxel (KB-3-1; 10 µM): no effect
Cc1nn(-c2nc3c(F)cc(F)cc3s2)c(O)c1C(c1cccc(C(F)(F)F)c1)c1c(C)nn(-c2nc3c(F)cc(F)cc3s2)c1O  inhibition (THP1-Dual; IFN luciferase reporter; 0.625 µM, together with: HT-DNA): 0.908% and -2.23% and -9.76% and -7.93% and 1.42% and 0.99%
CCc1cnc(N2CCC(c3nc(COc4ccc(-n5cnnn5)cc4)cs3)CC2)nc1  normalized enrichment score (HEK-293T; RNA-seq GSEA, item: HALLMARK_UV_RESPONSE_UP; concentration not given; direction not given): -1.63
Nc1cccc2c1CN(C1CCC(=O)NC1=O)C2=O (stereo not shown)  EC50 (BRD4-HiBiT cells; BRD4 degradation rescue, inhibitor; 8 h, 50% degradation rescued, together with: dBET6 500 nM): 10.6 µM
COc1ccc(-n2nc(C(C)=O)s/c2=N\N=C(/C)c2ccc(NC(=O)c3ccc(C)cc3)cc2)cc1  toxicity (MCF7; 5 µM): 96.9%
NS(=O)(=O)OC[C@@H]1C[C@@H](n2ccc3c(N[C@H]4CCc5ccccc54)ncnc32)C[C@@H]1O  EC50 (BRD4-HiBiT cells; BRD4 degradation rescue, inhibitor; 24 h, together with: dBET6 500 nM): 0.0527 µM
C[C@H]1CN(C2COC2)CCN1c1ccc(Nc2cc(-c3ccnc(N4CCn5c(cc6c5CC(C)(C)C6)C4=O)c3CO)cn(C)c2=O)nc1  maximum inhibition (TMD8; calcium flux, FLIPR; 1 h preincubation, together with: anti-IgM): 81.1%
Nc1ncnc2c1ncn2[C@@H]1O[C@H](CO)[C@@H](O)[C@H]1O  log2 fold change (activated human T cells; item: carbamoyl aspartate; 10 µM; reference: DMSO): 7.9 and 7.1 and 6.6
Cc1nn(-c2nc3ccccc3[nH]2)c(O)c1C(c1ccccn1)c1c(C)nn(-c2nc3ccccc3[nH]2)c1O  inhibition (THP1-Dual; IFN reporter gene, luciferase reporter; 25 µM, together with: HT-DNA): 45.8% and 49.9% and 48.7%
c1ccc2[nH]ccc2c1  mRNA level, LS mean (HCT-8; RNA-seq, item: CD7; concentration not given): 3.95 counts per million
Clc1nc(NCc2ccco2)c2[nH]cnc2n1  ΔPSI (FD iPSC-derived cardiomyocytes; alternative splicing, RNA-seq, item: CCDC34 exon chr11:27350331-27350439; unit not given; reference: DMSO minus compound): 0.27
Cc1cc(NS(=O)(=O)c2ccc(NC(=O)/C(C#N)=C/c3ccc(N4CCCCC4)cc3)cc2)no1  late apoptotic cells (HCT-116; annexin V/7-AAD flow cytometry; IC50, 48 h): 12%
CCCCN1C[C@H](O)[C@@H](O)[C@@H](O)[C@H]1CO  IC50 (sample F patient fibroblasts; Gb3 level lowering, LC-MS/MS, item: Gb3 d18:1/16:0; 216 h): 6.9 µM
Cn1cc(Nc2nccc(-c3ccc4c(c3)CN(C3COC3)CC[C@H]4NC(=O)c3cn(C(C)(C)C)nn3)n2)cn1  pathway activation z-score (mouse splenic B cells; item: EIF2 signalling; 30 mg/kg, IgD-activated in vivo; reference: vehicle, direction not given): 0.728
COc1cnc2cccc(N3CCc4c(cc(Cn5ccnc5C)cc4-c4cn(C)nc4C(F)(F)F)C3=O)c2c1  EC50 (HEC265; cell growth; 120 h): > 30 µM
Cc1cnc(NC2CCOCC2)nc1-n1cnc(C(=O)NC(CN)c2cc(F)cc(Cl)c2)c1 (stereo not shown)  G2 phase cells (MINO; flow cytometry; 1 µM, 48 h): 6.6%
COc1cc(/C=C/C(=O)N2CCC=CC2=O)cc(OC)c1OC  mRNA level (MDA-MB-468; qRT-PCR, item: NOS2; 30 µM, 6 h; reference: time zero): 886 ± 474%
CN(C)CCCOc1cc(NC(=O)c2cccc(C(=O)Nc3cc(OCCCN(C)C)c4ccccc4n3)n2)nc2ccccc12  selectivity ratio (HT-1080; cell viability, CellTiter-Glo; 72 h; reference: IC50 HT-1080 over WI-38): 0.8
CCn1cc(-c2cc(Cn3ccoc3=N)cc3c2CCN([C@@H](C)c2cc(OC)ccn2)C3=O)c(C(F)(F)F)n1  EC50 (HLC1; cell growth, inhibitor; 120 h): 0.0631 µM
CC(C)C[C@@H](C=O)NC(=O)[C@H](CC(C)C)NC(=O)[C@H](CC(C)C)NC(=O)OCc1ccccc1  EC50 (BRD4-HiBiT cells; BRD4 degradation rescue, inhibitor; 4 h, 50% degradation rescued, together with: dBET6 500 nM): 0.393 µM
C[C@]12CC[C@@H]3c4ccc(O)cc4CC[C@H]3[C@@H]1CC[C@@H]2OC(=O)CCC1CCCC1  Z score (MDA-MB-231 BAX/BAK siRNA knockdown; cell viability, CellTiter-Glo; direction not given): 1.2
C[C@H](CCC(=O)NCCS(=O)(=O)O)[C@H]1CC[C@H]2[C@@H]3CC[C@@H]4C[C@H](O)CC[C@]4(C)[C@H]3CC[C@]12C  proliferation increase (human ADPKD PLD cystic cholangiocytes; cell confluence; 20 µM, 48 h; reference: untreated): 72%
CCOC(=O)C1=C(C)NC2=C(C(=O)OC(c3ccc(OC)c(OC)c3)C2)C1c1ccccc1OC (stereo not shown)  EC50 (J774.A1; cytotoxicity): > 20 µM
Cc1nn(-c2nc3c(F)cc(F)cc3s2)c(O)c1C(c1ccccc1C(F)(F)F)c1c(C)nn(-c2nc3c(F)cc(F)cc3s2)c1O  inhibition (THP1-Dual; IFN luciferase reporter; 0.625 µM, together with: HT-DNA): -11.1% and -2.08% and 1.16% and -11.6% and -7.53% and -0.887%
CCOC(=O)C1=C(C)NC2=C(C(=O)CC(c3ccc(Cl)c(OC)c3)C2)C1c1ccc(Cl)cc1C (stereo not shown)  EC50 (J774.A1; cytotoxicity): > 20 µM
COc1cccc2c1C(=O)c1c(O)c3c(c(O)c1C2=O)C[C@@](O)(C(=O)CO)C[C@@H]3O[C@H]1C[C@H](N)[C@H](O)[C@H](C)O1  point of departure (HepG2; item: glutathione; 6 h, distribution mode 2): 0.2 µM
